Assay results collected from several papers.
Numbered parts are unrelated; each lists some results of a single study. Positions count from the first letter of the parent shown.

Set 1 — Variant: E130S; method: DHFR PCA, deep sequencing; matrix: yeast; reference: wild-type fitted maximum; direction: higher = stronger binding
Target: ABI1, truncated, D143A, DHFR fusion (Arabidopsis thaliana)
Setting: methotrexate growth selection, single substitutions
Parent: PYL1, truncated, DHFR fusion (Arabidopsis thaliana); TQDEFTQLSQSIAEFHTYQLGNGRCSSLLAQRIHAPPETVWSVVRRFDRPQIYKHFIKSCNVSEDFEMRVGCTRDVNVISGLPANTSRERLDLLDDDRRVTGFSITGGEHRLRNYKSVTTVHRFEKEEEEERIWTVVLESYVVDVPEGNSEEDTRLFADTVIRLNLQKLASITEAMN
with | relative binding score [%]
(+)-ABA 0.0091 µM | 56.1
(+)-ABA 58 µM | 96.4
(+)-ABA 4.8 µM | 83.3
(+)-ABA 0.032 µM | 38.2
(+)-ABA 0.11 µM | 39.9
(+)-ABA 1.4 µM | 68.3

Set 2 — method: protein-binding microarray; form: hairpin DNA; matrix: in vitro; tested at: not given; reference: not given; direction: higher = stronger binding
Target: FOXO3, forkhead domain (mouse, UniProt Q9WVH4, residues 31-263)
Sequence of UniProt Q9WVH4 (31-263, looked up): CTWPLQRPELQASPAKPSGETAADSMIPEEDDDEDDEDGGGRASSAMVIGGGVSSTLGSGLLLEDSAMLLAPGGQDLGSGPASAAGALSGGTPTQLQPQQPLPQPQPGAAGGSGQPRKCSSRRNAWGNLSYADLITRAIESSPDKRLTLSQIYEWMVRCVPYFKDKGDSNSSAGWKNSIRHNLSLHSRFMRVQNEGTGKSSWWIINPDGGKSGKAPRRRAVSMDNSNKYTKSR
Setting: whole hairpin DNA, median over replicate spots
Oligonucleotide | median fluorescence [a.u.]
GAGGCCACGCAAACAACGCCTCCTGGCGTTGTTTGCGTGGCCTCACACTC (5mC at 8 36) | 5150
GAGGCCATGCACACAACGCCTCCTGGCGTTGTGTGCATGGCCTCACACTC | 4710
GAGGCCCGGCAAACAACGCCTCCTGGCGTTGTTTGCCGGGCCTCACACTC (5mC at 37) | 5530
GAGGCCATGCAAACAAGGCCTCCTGGCCTTGTTTGCATGGCCTCACACTC | 4770
GAGGCCATCGAACCAACGCCTCCTGGCGTTGGTTCGATGGCCTCACACTC (5mC at 35) | 4290
GAGGCCATCGAACCAACGCCTCCTGGCGTTGGTTCGATGGCCTCACACTC | 4540
GAGGCCATGCTAACAACGCCTCCTGGCGTTGTTAGCATGGCCTCACACTC | 4190
GAGGCCATGCACGCAACGCCTCCTGGCGTTGCGTGCATGGCCTCACACTC | 4880

Other studies, line by line
P1: viral docking peptide; KGVKRKLFAEDSS; partner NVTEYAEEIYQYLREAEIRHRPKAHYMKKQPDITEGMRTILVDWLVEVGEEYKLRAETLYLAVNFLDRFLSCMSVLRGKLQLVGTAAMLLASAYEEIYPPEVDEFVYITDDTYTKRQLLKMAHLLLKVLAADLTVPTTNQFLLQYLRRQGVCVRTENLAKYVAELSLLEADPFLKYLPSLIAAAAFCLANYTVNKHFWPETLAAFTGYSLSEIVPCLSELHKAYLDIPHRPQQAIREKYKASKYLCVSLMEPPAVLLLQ
Substance | tested on | assay | test system | setting | scale | measurement | result
EPRS1 (Homo sapiens, UniProt P07814) | ARFGAP2 (Homo sapiens, UniProt Q8N6H7) | cross-linking MS | cell fractions | with: DSSO |  | cross-linked residues | K861 to K263
P1 K4N | CCNA1, cyclin fold, Cln2 fusion (human) | yeast growth competition, sequencing | yeast | weak parent motif | reference: not given, higher = stronger binding | normalised enrichment score | 0.612
HSP90B1 (Homo sapiens, UniProt P14625) | CKAP4 (Homo sapiens, UniProt Q07065) | cross-linking MS | cell fractions | with: DSSO |  | cross-linked residues | K161 to K355

A few entries again (other studies, line by line):
Substance | tested on | assay | test system | setting | scale | measurement | result
P1 K4N | CCNA1, cyclin fold, Cln2 fusion (human) | yeast growth competition, sequencing | yeast | weak parent motif | reference: not given, higher = stronger binding | normalised enrichment score | 0.612
HSP90B1 (Homo sapiens, UniProt P14625) | CKAP4 (Homo sapiens, UniProt Q07065) | cross-linking MS | cell fractions | with: DSSO |  | cross-linked residues | K161 to K355
